Published values gathered from unrelated publications.
Every numbered part comes from another study and shows a few of its results, in no order.
UniProt P53779, sequence (whole entry, looked up): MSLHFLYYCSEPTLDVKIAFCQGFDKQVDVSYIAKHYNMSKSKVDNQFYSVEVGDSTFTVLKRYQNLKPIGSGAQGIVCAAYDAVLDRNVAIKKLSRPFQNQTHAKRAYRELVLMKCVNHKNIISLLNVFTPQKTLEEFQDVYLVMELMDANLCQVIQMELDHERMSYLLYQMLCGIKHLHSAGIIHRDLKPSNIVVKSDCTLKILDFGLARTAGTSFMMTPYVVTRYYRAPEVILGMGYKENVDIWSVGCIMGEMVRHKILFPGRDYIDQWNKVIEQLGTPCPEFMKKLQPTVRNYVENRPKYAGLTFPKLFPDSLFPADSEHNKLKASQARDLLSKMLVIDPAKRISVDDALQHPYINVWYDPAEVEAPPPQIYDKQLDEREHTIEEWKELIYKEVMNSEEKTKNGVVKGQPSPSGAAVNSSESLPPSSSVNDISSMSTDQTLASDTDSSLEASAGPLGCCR
UniProt Q9Y2H9, sequence (whole entry, looked up): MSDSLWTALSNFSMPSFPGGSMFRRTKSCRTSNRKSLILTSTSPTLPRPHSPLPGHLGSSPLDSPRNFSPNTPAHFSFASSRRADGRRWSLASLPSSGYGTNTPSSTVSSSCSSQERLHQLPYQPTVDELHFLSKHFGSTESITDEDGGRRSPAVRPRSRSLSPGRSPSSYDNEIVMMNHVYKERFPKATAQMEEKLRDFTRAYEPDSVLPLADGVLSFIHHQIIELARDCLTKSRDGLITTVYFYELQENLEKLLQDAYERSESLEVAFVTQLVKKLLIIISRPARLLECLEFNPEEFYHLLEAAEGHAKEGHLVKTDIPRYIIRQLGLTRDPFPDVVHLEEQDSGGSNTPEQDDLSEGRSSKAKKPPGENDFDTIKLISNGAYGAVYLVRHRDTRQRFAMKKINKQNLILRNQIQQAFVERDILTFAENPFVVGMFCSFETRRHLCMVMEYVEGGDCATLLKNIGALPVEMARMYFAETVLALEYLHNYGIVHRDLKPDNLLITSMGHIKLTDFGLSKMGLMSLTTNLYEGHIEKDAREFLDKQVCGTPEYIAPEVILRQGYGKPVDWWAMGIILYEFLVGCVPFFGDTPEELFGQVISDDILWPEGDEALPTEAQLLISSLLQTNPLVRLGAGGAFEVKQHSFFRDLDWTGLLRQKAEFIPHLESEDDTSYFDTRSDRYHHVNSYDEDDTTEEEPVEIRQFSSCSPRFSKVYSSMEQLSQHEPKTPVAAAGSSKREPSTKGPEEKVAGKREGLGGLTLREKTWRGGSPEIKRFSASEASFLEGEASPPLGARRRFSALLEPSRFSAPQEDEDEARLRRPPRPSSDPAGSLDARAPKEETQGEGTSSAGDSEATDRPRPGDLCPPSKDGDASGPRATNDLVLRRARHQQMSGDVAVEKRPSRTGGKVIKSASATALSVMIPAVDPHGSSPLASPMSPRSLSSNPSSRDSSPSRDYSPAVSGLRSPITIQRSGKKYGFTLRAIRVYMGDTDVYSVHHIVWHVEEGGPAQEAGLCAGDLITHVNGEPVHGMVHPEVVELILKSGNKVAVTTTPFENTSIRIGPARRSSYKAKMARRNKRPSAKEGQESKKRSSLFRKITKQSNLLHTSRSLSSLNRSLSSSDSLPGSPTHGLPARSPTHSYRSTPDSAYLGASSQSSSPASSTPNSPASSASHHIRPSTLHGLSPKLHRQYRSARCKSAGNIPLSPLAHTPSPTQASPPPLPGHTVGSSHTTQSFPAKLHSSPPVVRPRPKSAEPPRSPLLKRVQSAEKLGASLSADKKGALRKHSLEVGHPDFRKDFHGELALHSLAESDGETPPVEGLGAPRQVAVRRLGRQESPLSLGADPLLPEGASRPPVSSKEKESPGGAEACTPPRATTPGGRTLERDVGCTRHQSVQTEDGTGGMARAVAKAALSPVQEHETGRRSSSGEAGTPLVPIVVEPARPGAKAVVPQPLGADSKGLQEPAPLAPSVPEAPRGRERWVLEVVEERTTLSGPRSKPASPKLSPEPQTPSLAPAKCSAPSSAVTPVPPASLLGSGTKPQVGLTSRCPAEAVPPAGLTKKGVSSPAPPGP
UniProt Q9NWZ3, sequence (whole entry, looked up): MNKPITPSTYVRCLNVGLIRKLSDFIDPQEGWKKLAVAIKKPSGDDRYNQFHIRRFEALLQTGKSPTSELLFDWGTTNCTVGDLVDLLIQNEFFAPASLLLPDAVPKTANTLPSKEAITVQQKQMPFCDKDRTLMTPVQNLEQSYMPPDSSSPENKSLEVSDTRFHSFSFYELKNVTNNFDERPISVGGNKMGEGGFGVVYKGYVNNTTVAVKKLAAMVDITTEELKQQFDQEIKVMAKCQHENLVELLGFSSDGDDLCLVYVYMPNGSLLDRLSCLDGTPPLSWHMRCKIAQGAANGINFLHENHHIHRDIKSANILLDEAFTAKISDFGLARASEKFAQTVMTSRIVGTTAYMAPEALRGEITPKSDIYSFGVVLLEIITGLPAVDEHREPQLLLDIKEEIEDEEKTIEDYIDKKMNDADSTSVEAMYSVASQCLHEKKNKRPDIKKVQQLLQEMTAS
UniProt Q8WTQ7, sequence (whole entry, looked up): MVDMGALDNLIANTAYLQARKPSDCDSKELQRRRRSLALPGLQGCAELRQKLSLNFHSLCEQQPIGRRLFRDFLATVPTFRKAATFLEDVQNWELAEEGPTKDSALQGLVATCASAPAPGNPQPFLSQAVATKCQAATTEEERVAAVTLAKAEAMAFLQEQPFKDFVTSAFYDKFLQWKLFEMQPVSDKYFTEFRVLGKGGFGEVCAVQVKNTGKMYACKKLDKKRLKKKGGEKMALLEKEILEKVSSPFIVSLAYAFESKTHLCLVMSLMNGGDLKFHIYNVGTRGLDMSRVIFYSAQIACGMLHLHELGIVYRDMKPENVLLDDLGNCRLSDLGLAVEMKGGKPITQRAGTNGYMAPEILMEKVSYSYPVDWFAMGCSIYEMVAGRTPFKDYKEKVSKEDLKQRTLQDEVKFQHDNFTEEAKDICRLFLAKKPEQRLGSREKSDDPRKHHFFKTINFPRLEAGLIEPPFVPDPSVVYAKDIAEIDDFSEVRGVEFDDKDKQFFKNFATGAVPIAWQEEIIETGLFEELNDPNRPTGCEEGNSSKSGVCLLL

Study 1
SMILES: O=C(NCc1ncc(C(F)(F)F)cc1Cl)c1ccc2c(c1)C1(CCS(=O)(=O)CC1)[C@@H](C1CC1)N2S(=O)(=O)c1ccc(F)cc1
Read-out: cell-free assay
Technique: competition with immobilised ligand
Concentration: 1 µM
Quantity: remaining binding
IRAK4 (Homo sapiens, UniProt Q9NWZ3): 90%
MAST1 (Homo sapiens, UniProt Q9Y2H9): 61%
EPHA3 (Homo sapiens, UniProt P29320): 67%
ERBB2 (Homo sapiens, UniProt P04626): 100%
Mast/stem cell growth factor receptor Kit, autoinhibited (KIT, Homo sapiens, UniProt P10721): 82%
MAP3K10 (Homo sapiens, UniProt Q02779): 100%
PAK3 (Homo sapiens, UniProt O75914): 89%
MAPK3 (Homo sapiens, UniProt P27361): 83%
MAPK10 (Homo sapiens, UniProt P53779): 73%
GRK7 (Homo sapiens, UniProt Q8WTQ7): 65%
RET (Homo sapiens, UniProt P07949, V804L): 100%
INSRR (Homo sapiens, UniProt P14616): 100%
TNIK (Homo sapiens, UniProt Q9UKE5): 71%

Study 2
Target: Maternal embryonic leucine zipper kinase (MELK, Homo sapiens, UniProt Q14680)
UniProt Q14680, sequence (whole entry, looked up): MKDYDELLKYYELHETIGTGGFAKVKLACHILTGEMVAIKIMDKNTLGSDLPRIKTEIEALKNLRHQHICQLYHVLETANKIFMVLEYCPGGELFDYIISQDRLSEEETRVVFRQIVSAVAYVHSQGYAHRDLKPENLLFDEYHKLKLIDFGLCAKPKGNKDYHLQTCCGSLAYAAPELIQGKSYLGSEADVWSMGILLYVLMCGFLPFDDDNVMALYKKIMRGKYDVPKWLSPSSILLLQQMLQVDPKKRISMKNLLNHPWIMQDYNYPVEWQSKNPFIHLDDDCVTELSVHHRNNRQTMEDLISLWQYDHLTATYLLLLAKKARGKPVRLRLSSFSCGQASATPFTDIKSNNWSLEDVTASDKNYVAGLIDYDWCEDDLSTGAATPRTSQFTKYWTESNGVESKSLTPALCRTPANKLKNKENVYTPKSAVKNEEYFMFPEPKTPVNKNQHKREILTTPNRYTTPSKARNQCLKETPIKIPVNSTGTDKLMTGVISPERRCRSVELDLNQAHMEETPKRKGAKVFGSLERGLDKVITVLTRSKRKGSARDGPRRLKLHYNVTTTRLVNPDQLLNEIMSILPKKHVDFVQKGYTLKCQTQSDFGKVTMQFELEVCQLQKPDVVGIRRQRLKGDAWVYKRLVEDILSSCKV
Read-out: enzyme activity
Mode: inhibitor
Concentration: 0.5 µM
Relative to: control
Quantity: remaining activity
COc1cc2ncnc(Nc3cccc(Cl)c3)c2cc1OC: 81.8%
c1ccc(-c2cnc(Nc3ccc(OCCN4CCCC4)cc3)s2)cc1: 83.5%
Nc1cccc(-c2cc3c(Oc4cccc(O)c4)ncnc3[nH]2)c1: 93.4%
CCOc1nc(NC(=O)Cc2cc(OC)ccc2OC)cc(N)c1C#N: 97.1%
CCN(CC)C(=O)c1ccc(Nc2nc(OCC3CCCCC3)c3[nH]cnc3n2)cc1: 76.3%
Cc1cn(-c2cc(NC(=O)c3ccc(C)c(Nc4nccc(-c5cccnc5)n4)c3)cc(C(F)(F)F)c2)cn1: 90%
COc1cc2c(cc1OC)-c1[nH]nc(Nc3cccc(F)c3)c1C2: 72.1%
O=c1cc(-c2cccc3c2Sc2ccccc2S3)oc(N2CCOCC2)c1: 99.9%
O=C1c2ccccc2-c2n[nH]c3cccc1c23: 21.6%
COc1cc2ncnc(Nc3ccc(O)c(Br)c3)c2cc1OC: 83.4%
N#C/C(=C\c1ccc(O)c(O)c1)C(=O)NCc1ccccc1: 100%
Ic1cccc(CSc2nnc(-c3ccncc3)o2)c1: 97.7%

Study 3
Organism: Sarcocystis neurona
Read-out: parasite growth
Concentration: 10 µM
Quantity: inhibition
CN(CCCN1c2ccccc2CCc2ccccc21)CC(=O)c1ccc(Cl)cc1: 4.4%
CC(C)NCC(O)c1cc(O)cc(O)c1 (centres unmarked): -23%
COc1cccc2c1C(=O)c1c(O)c3c(c(O)c1C2=O)C[C@@](O)(C(C)=O)C[C@@H]3O[C@H]1C[C@H](N)[C@H](O)[C@H](C)O1: 96.6%
OC[C@H]1O[C@@H](Oc2cc(O)cc(/C=C/c3ccc(O)cc3)c2)[C@H](O)[C@@H](O)[C@@H]1O: -21.1%
CO[C@H]1/C=C/O[C@@]2(C)Oc3c(C)c(O)c4c(O)c(c5c(nc6cc(C)ccn65)c4c3C2=O)NC(=O)/C(C)=C\C=C\[C@H](C)[C@H](O)[C@@H](C)[C@@H](O)[C@@H](C)[C@H](OC(C)=O)[C@@H]1C: -23.5%
CC1=C(C/C=C(\C)CCC[C@H](C)CCC[C@H](C)CCCC(C)C)C(=O)c2ccccc2C1=O: -24.4%
CC1(C)S[C@@H]2[C@H](/N=C/N3CCCCCC3)C(=O)N2[C@H]1C(=O)O: -20.2%

Study 4
Species: human
Sample: microsomes or S9
Concentration: 2 µM
Time: 0.5 h
Quantity: remaining compound
Cc1ccc(S(=O)(=O)N2CCN(C(=O)CN3CCOCC3)C2c2ccc(Cl)cc2Cl)cc1 (centres unmarked): 2.65%
O=C(c1c(OCC2CC2)cc(=O)n2c1CCOCC2)N1CCN(c2ccccc2F)CC1: 69.8%
Cc1cc2ncccc2c(Br)c1OS(=O)(=O)C(F)(F)F: 91.2%
COc1ccc2c(C)c(C(=O)OC(C)C)n(C)c2c1: 38%
CNC(=O)Nc1cc(S(=O)(=O)C(C)C(=O)O)c(Cl)cc1F (centres unmarked): > 99%
Cc1cccc(C)c1NC(=O)C1(NC(=O)c2cc[nH]n2)CCCCC1: 88.5%
CN(C)Cc1c(N)n(Cc2ccco2)c(=O)[nH]c1=O: 87.7%
O=C(COc1ncnc2scc(-c3ccccc3)c12)c1ccc(S(=O)(=O)N2CCCC2)cc1: 1.35%
COc1cc2c(Nc3ccc(Br)cc3F)ncnc2cc1O: 79.8%

Excerpt of the above (study 4):
Cc1cc2ncccc2c(Br)c1OS(=O)(=O)C(F)(F)F: 91.2%
CNC(=O)Nc1cc(S(=O)(=O)C(C)C(=O)O)c(Cl)cc1F (centres unmarked): > 99%
O=C(c1c(OCC2CC2)cc(=O)n2c1CCOCC2)N1CCN(c2ccccc2F)CC1: 69.8%
O=C(COc1ncnc2scc(-c3ccccc3)c12)c1ccc(S(=O)(=O)N2CCCC2)cc1: 1.35%
COc1cc2c(Nc3ccc(Br)cc3F)ncnc2cc1O: 79.8%
